Published values from different studies.
Numbered parts are unrelated; each lists some results of a single study. Changes are numbered by the printed parent chain.

Study 1 — target: CCNB2, cyclin fold, Cln2 fusion (human); method: yeast growth competition, sequencing; medium: yeast; setting: weak parent motif; relative to: not given; reading: higher = stronger binding
Starting sequence: PKN2 docking peptide (human); VSAVQKLDFSDTM; partner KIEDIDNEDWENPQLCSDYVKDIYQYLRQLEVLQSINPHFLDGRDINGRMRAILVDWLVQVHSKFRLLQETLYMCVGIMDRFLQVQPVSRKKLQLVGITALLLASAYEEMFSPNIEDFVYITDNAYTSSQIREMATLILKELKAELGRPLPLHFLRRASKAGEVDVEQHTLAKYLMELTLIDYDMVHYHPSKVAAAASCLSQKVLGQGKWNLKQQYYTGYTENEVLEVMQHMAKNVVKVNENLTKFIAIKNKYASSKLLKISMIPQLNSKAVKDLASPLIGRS
`VSAVQKNDFSDTM [L7N]`: “normalised enrichment score” -0.357.
Under “normalised enrichment score”, `VSAVQKLDFGDTM [S10G]` is recorded as 0.217.
For `VAAVQKLDFSDTM [S2A]`, “normalised enrichment score” read 0.158.
For `VSAVQKLDFSITM [D11I]`, “normalised enrichment score” read -0.625.
For `VSKVQKLDFSDTM [A3K]`, “normalised enrichment score” read -0.416.
Under “normalised enrichment score”, `VSAVQKLDFWDTM [S10W]` is recorded as -0.195.
For `VCAVQKLDFSDTM [S2C]`, “normalised enrichment score” read 0.148.

Study 2 — method: universal PBM; molecule type: double-stranded DNA, one strand shown; medium: in vitro; tested at: not given; reading: higher = stronger binding
Target: Sal-like protein 4, full length isoform B (SALL4, Homo sapiens, UniProt Q9UJQ4-2, residues 1-616)
Setting: 8-mer, flanks averaged, mean of replicates
The E-score of `ACCCTTAA` is reported as 0.0868.
The E-score of `GCAGTGAA` is reported as 0.0944.
`GCGGTACA` gave an E-score of -0.137.
`ACAATTTA` gave an E-score of 0.285.
The E-score of `ACCCGCCA` is reported as -0.0406.

Study 3 — method: competition protein-binding microarray; molecule type: double-stranded DNA, one strand shown; medium: in vitro; tested at: 2 µM; added: Pho4 competitor, 0.05 µM; reading: higher = stronger binding; constant ends, left off below: … GTCTTGATTCGCTTGACGCTGCTG
Target: Centromere-binding protein 1, full length, His-tagged (CBF1, Saccharomyces cerevisiae, UniProt P17106, residues 1-351)
Sequence of UniProt P17106 (whole entry, looked up): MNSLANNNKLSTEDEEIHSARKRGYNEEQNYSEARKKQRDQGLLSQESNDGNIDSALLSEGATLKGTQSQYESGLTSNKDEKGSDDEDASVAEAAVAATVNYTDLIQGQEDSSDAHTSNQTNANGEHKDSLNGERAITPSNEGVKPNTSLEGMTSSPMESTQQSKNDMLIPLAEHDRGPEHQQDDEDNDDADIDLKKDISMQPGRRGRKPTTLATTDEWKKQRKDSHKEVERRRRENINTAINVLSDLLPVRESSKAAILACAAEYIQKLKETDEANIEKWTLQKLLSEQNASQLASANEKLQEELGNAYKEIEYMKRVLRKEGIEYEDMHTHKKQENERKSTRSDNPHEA
Setting: whole 60-bp probe, lowest competitor level
`TGCGCAACAACTTGTCACCTCACTTTATGTCTAGAA` gave a fluorescence intensity of 63.3 a.u.
`ATTACCTTGGCCCTTCACGGGCGGGTTCCTCGGAAT` gave a fluorescence intensity of 49.6 a.u.
`AAATTACTAAGTTGCACTGTGGGTGACGCCGTATGA` has a fluorescence intensity of 57.7 a.u.
With `TCGTCTGGGTTGGGACCGATGATAATAACGTAGTTA` the fluorescence intensity was 56.7 a.u.
The fluorescence intensity of `TCATAGTAGGTTTGTCATGCGCGTTGGAAAAAGAAA` is reported as 103 a.u.
`TGGCAGTAACACCGTCACGCTTTTCATGTTTATGGC` has a fluorescence intensity of 230 a.u.

Mixed results
With `PhoQ, residues 284 288 289 292 302 303 AAQSYM` the fold induction was 14.7 (PhoP, residues 12 14 15 18 19 LYHSL (Escherichia coli, UniProt P23836); Sort-seq, item: YFP reporter; E. coli; PhoQ-PhoP variant library, added: 10 µM Mg2+; relative to: high Mg2+ state, higher = stronger signaling).

Repeated from above (study 1):
For `VAAVQKLDFSDTM [S2A]`, “normalised enrichment score” read 0.158.
